{"data": "Published values gathered from unrelated publications", "note": "Each line is one published result; not all experiments were run side by side. ± marks the error that the study gave."}
{"Compound": "O=C(C[18F])NCCCCCC(=O)Nc1ccccc1", "test": "dynamic PET", "test system": "rhesus monkey, brain regions", "setting": "intravenous", "scale": "baseline: [18F]FACE", "quantity": "k1 and k2 rate constants", "value": "10 to 20 fold"}
{"Compound": "[123I]c1cncc(OC[C@@H]2CCN2)c1", "test": "SPECT", "test system": "human, hippocampus", "setting": "intravenous bolus, 8.6 mCi", "scale": "baseline: tissue over plasma", "quantity": "tissue/plasma ratio", "value": 21.7}
{"Compound": "CSCC[C@@H]1NC(=O)[C@H](CC(=O)O)NC(=O)CNC(=O)[C@H](CCCNC(=N)N)NC(=O)[C@H](C)NC(=O)[C@H](CCC(=O)O)NC(=O)[C@H](CCCNC(=N)N)NC(=O)[C@@H]2CSSC[C@@H]3NC(=O)[C@H](CO)NC(=O)[C@H]([C@@H](C)O)NC(=O)[C@@H]4CCCN4C(=O)[C@H](C)NC(=O)[C@H](Cc4c[nH]c5ccccc45)NC(=O)[C@H](CC(=O)O)NC(=O)CNC(=O)[C@H](CCCNC(=N)N)NC(=O)CNC(=O)[C@H](CCC(N)=O)NC(=O)[C@@H]4CCCN4C(=O)[C@@H](NC(=O)CNC(=O)C(C)F)CSSC[C@H](NC(=O)CNC(=O)[C@H](C)NC(=O)[C@H](CC(C)C)NC(=O)[C@H](CSSC[C@@H](C(=O)NCC(N)=O)NC(=O)[C@H]([C@@H](C)O)NC(=O)[C@H](CCCNC(=N)N)NC(=O)[C@@H]4CCCN4C1=O)NC(=O)[C@H](CC(=O)O)NC(=O)[C@H](CO)NC(=O)[C@H](CC(=O)O)NC(=O)[C@H](CCC(N)=O)NC(=O)[C@H](CO)NC3=O)C(=O)N[C@@H](C(C)C)C(=O)N2 (stereo partly shown) [fluorine-18 labelled]", "test system": "nude mouse, U-87 MG xenograft, pancreas", "setting": "intravenous, 2.5 h, with: cyclo(RGDyK) co-injected", "quantity": "tissue uptake", "value": "0.19 ± 0.03 %ID/g"}
{"Compound": "CC(C)C[C@H](NC(=O)[C@H](CCC(=O)O)NC(=O)[C@H](CCC(=O)O)NC(=O)[C@H](CC(=O)O)NC(=O)[C@H](CCC(=O)O)NC(=O)[C@H](CCC(=O)O)NC(=O)[C@H](CCC(=O)O)NC(=O)[C@@H](N)CC(=O)O)C(=O)O", "test system": "rat, plasma", "setting": "intravenous, 11.0 mg/kg single dose, 165 min", "quantity": "plasma concentration", "value": "14.3 ng/mL"}
{"Compound": "CC(=O)N[C@H](CCCCNC(=O)C(C)F)C(=O)N[C@@H](CS)C(=O)N[C@@H](CS)C(=O)N[C@@H](CCC(=O)O)C(=O)N[C@@H](Cc1c[nH]cn1)C(=O)N[C@H](Cc1ccccc1)C(=O)N[C@@H](CCCNC(=N)N)C(=O)N[C@@H](Cc1c[nH]c2ccccc12)C(=O)N[C@@H](CS)C(=O)N[C@@H](CCCNC(=N)N)C(=O)N1CCC[C@H]1C(=O)N[C@H](C(N)=O)C(C)C (stereo partly shown) [fluorine-18 labelled]", "test system": "C57BL/6 mice, male, B16-F10 tumour, muscle", "setting": "intravenous, 2 h", "quantity": "tissue uptake", "value": "0.17 ± 0.03 %ID/g"}
{"Compound": "O[C@H]1CCCN[C@@H]1CCCn1cnc2c(Cl)c(Cl)ccc21", "test system": "rat", "setting": "multiple-dose up to 28 days", "quantity": "NOAEL", "value": "200 mg/kg/day"}
{"Compound": "CC1N=C(c2ccccc2F)c2cc(N(C)c3ccccc3)ccc2NC1=O (stereo not shown)", "test": "shake flask", "test system": "PBS", "setting": "24 h, pH 7.4", "quantity": "solubility", "value": "< 1 µM"}
{"Compound": "C[N+](C)(C)[C@@H](Cc1c[nH]c(=S)[nH]1)C(=O)[O-]", "test system": "rat treated with 1,25-dihydroxyvitamin D3, kidney", "setting": "intravenous", "scale": "baseline: untreated control rats", "quantity": "decrease in tissue partition coefficient", "value": "60.1%"}
{"Compound": "Cc1cnc(C(=O)N[C@H]2CCCCC/C=C\\[C@@H]3C[C@@]3(C(=O)NS(=O)(=O)C3CC3)NC(=O)[C@@H]3C[C@@H](Oc4nc5ccccc5c5ccccc45)CN3C2=O)cn1", "test system": "healthy volunteers", "setting": "oral, dose not given, without digoxin", "quantity": "AUCtau", "value": "5660 ng·h/mL"}
{"Compound": "CN[C@@](C)(C[18F])C(=O)O", "test system": "SCID mouse DU-145 xenograft, brain", "setting": "120 min, post injection", "quantity": "tissue uptake", "value": "0.3 ± 0.1 %ID/g"}
